Assay results of several laboratories.
Compare with care: the assays were run in different laboratories. Values joined by “and” are separate records of one study, mostly repeats; a detail may differ. Numbers after ± are the reported error.

CCN(C)C(=O)Oc1ccccc1/C=C1\Cc2cc(OC)c(OC)cc2C1=O
AUC(0-inf) (male Sprague-Dawley rat, plasma; oral, 100 mg/kg, single dose): 3390 ng·h/mL

[2H]C([2H])([18F])[C@]([2H])(N)C(=O)O
maximum tumour uptake (PET; athymic nude mouse, U-87 MG tumour; 15 min): 2 to 3 %ID/cc

CC(C)[C@@H]1NC(=O)CNC(=O)[C@H](CC(N)=O)NC(=O)[C@H](CCCNC(=N)N)NC(=O)[C@H](Cc2ccc(O)cc2)NC(=O)[C@H](C(C)C)NC(=O)[C@@H](NC(=O)[C@@H](NC(=O)[C@H](CC(N)=O)NC(=O)[C@H](Cc2c[nH]c3ccccc23)NC(=O)[C@H](C)NC(=O)[C@H](Cc2ccccc2)NC(=O)CNC(=O)[C@H](CCCCN)NC(=O)[C@H](Cc2ccccc2)NC(=O)[C@H](Cc2ccccc2)NC(=O)[C@H](CCCCN)NC(=O)OCC2c3ccccc3-c3ccccc32)C(C)C)CSSC[C@@H](C(=O)N[C@@H](Cc2c[nH]cn2)C(=O)N[C@@H](CCCNC(=N)N)C(=O)N[C@@H](CCCNC(=N)N)C(=O)N[C@@H](C)C(=O)N[C@@H](CC(N)=O)C(N)=O)NC(=O)[C@H](C(C)C)NC(=O)[C@H](CCCNC(=N)N)NC1=O
body posture score (ICR mouse; ip, 5 mg/kg; direction not given): 0

CC[C@H](C)[C@H](NC(=O)[C@H](Cc1c[nH]c2ccccc12)NC(=O)[C@H](Cc1ccc(O)cc1)NC(=O)[C@H](CCCCN)NC(=O)[C@H](CC(C)C)NC(=O)[C@@H](N)CO)C(=O)N[C@@H](CCCNC(=N)N)C(=O)N[C@@H](Cc1ccc(O)cc1)C(=O)N[C@@H](CCCCN)C(=O)N[C@@H](CCCNC(=N)N)C(=O)N[C@@H](CCC(N)=O)C(=O)NCC(=O)N[C@@H](C)C(=O)N[C@@H](C)C(=O)N[C@@H](CCCNC(=N)N)C(=O)N[C@@H](Cc1ccccc1)C(N)=O
elution acetonitrile content (reversed-phase UPLC; C18 column, TFA): 43.7%

NC1CCN(C(=O)Oc2ccc(C3CCCC4(C3)OOC3(O4)C4CC5CC(C4)CC3C5)cc2)CC1 (racemic)
AUC(0-inf) (male ICR mice, plasma; intravenous, 10 mg/kg): 1150 ng·h/mL

CC(C)C[C@H](NC(=O)[C@@H](N)CO)C(=O)N[C@@H](Cc1c[nH]c2ccccc12)C(=O)N[C@@H](CCC(=O)O)C(=O)N[C@@H](CC(N)=O)C(=O)N[C@@H](Cc1ccccc1)C(=O)N[C@@H](CCCCN)C(=O)N[C@@H](CC(N)=O)C(=O)N[C@@H](C)C(=O)NCC(=O)N[C@@H](CCCCN)C(=O)N[C@@H](CCCCN)C(N)=O
HC50 (horse erythrocytes; 2 h, 37 °C; baseline: Triton X-100): > 128 µM

COCC1CN(C2CCN(c3cc(OC)c(Nc4ncc(Br)c(Nc5ccc6c(c5P(C)(C)=O)OCCO6)n4)cc3C)CC2)C1
treatment-related deaths (human patients; oral, 240 mg once daily): 0%

Cn1nc(NS(C)(=O)=O)c2c(Cl)ccc(-n3c([C@H](Cc4cc(F)cc(F)c4)NC(=O)Cn4nc(C(F)F)c5c4C(F)(F)[C@@H]4C[C@H]54)nc4nc(OCCC(F)(F)F)ccc4c3=O)c21
tmax (human, plasma; oral, 125 mg single dose, powder in bottle, median): 10 h

N=C(N)NCCC[C@H](NC(=O)[C@H](CCCNC(=N)N)NC(=O)[C@H](CCCNC(=N)N)NC(=O)[C@H](CCC(N)=O)NC(=O)[C@H](CCCNC(=N)N)NC(=O)[C@H](CCCNC(=N)N)NC(=O)[C@H](CCCCN)NC(=O)[C@H](CCCCN)NC(=O)[C@H](CCCNC(=N)N)NC(=O)CNC(=O)[C@H](Cc1ccc(O)cc1)NC(=O)[C@H](Cc1ccccc1)NC(=O)[C@H](Cc1ccccc1)NC(=O)[C@H](Cc1ccccc1)NC(=O)OCC1c2ccccc2-c2ccccc21)C(=O)O
health score (C57BL/6 mice; intraperitoneal, 5 mg/kg, 0.5 h; direction not given): 5

O=C1NC2(CC2)COc2ncc(F)cc2[C@H]2COCCN2c2ccn3ncc1c3n2
body weight (Sprague-Dawley rat, male; oral, 10 mg/kg/day, end of treatment, 4-week repeated-dose toxicity): 451 ± 30.5 g

CCCCC(CC)COC(=O)CC(C(=O)OCC(CC)CCCC)S(=O)(=O)O.COC(=O)Nc1nc2cc(C(=O)c3ccc(F)cc3)ccc2[nH]1 (centres unmarked)
solubility (visual inspection; Labrasol): ~30 mg/mL

CC[C@H](C)[C@H](NC(=O)[C@H](CCCCN)NC(=O)CNC(=O)[C@H](CC(C)C)NC(=O)[C@H](Cc1ccccc1)NC(=O)[C@H](CCCCN)NC(=O)[C@H](CO)NC(=O)[C@H](Cc1ccccc1)NC(=O)[C@H](Cc1c[nH]c2ccccc12)NC(=O)[C@H](CCC(N)=O)NC(=O)[C@@H](NC(=O)[C@H](Cc1ccccc1)NC(=O)CCCCCNC(=O)CN1CCN(CC(=O)O)CCN(CC(=O)O)CCN(CC(=O)O)CC1)C(C)C)C(=O)N[C@@H](CCC(=O)O)C(=O)N1CCC[C@H]1C(=O)N[C@@H](CC(=O)O)C(=O)N[C@H](C(=O)N[C@@H](CO)C(=O)N[C@@H](CCC(N)=O)C(=O)N[C@H](C(=O)N[C@@H](CCC(N)=O)C(=O)N[C@@H](CC(=O)O)C(=O)N1CCC[C@H]1C(=O)N[C@@H](CC(N)=O)C(=O)N[C@@H](CC(=O)O)C(=O)N[C@@H](CCC(N)=O)C(=O)N[C@@H](Cc1ccc(O)cc1)C(=O)N[C@@H](CCC(=O)O)C(=O)N1CCC[C@H]1C(=O)N[C@@H](Cc1ccccc1)C(=O)O)C(C)C)C(C)C [copper-64 labelled]
tissue uptake (C57BL/6 mice, bone; with: LPS 0.1 mg/kg intratracheal): 0.5 ± 0.1 %ID/g

CCCCCCCCCCCCCCCC(=O)N[C@@H](CCC(=O)NCCOCCOCCC(=O)NCCOCCOCCC(=O)NCCCC[C@H](NC(=O)[C@H](CC(=O)O)NC(=O)[C@H](CC(C)C)NC(=O)[C@H](Cc1ccc(O)cc1)NC(=O)[C@H](CCCCN)NC(=O)[C@H](CO)NC(=O)[C@H](Cc1ccc(O)cc1)NC(=O)[C@H](CC(=O)O)NC(=O)[C@H](CO)NC(=O)[C@@H](NC(=O)[C@H](Cc1ccccc1)NC(=O)[C@@H](NC(=O)CNC(=O)[C@H](CCC(N)=O)NC(=O)[C@@H](CO)NC(=O)[C@@H](N)Cc1c[nH]cn1)[C@@H](C)O)[C@@H](C)O)C(=O)N[C@@H](CCCNC(=N)N)C(=O)N[C@@H](CCCNC(=N)N)C(=O)N[C@@H](C)C(=O)N[C@@H](CCC(N)=O)C(=O)N[C@@H](CC(=O)O)C(=O)N[C@@H](Cc1ccccc1)C(=O)N[C@H](C(=O)N[C@@H](CCC(N)=O)C(=O)N[C@@H](Cc1c[nH]c2ccccc12)C(=O)N[C@@H](CC(C)C)C(=O)N[C@@H](CC(C)C)C(=O)N[C@@H](CC(N)=O)C(=O)N[C@H](C(=O)NCC(=O)NCC(=O)N1CCC[C@H]1C(=O)N[C@@H](CO)C(=O)N[C@@H](CO)C(=O)NCC(=O)N[C@@H](C)C(=O)N1CCC[C@H]1C(=O)N1CCC[C@H]1C(=O)N1CCC[C@H]1C(=O)N[C@@H](CO)C(N)=O)[C@@H](C)O)C(C)C)C(=O)O
serum enzyme activity (refers to: ALT; rhesus monkey, male; subcutaneous, 60 µg/kg once daily, 28 days): 47.3 ± 13.3 U/L

COc1cnc2cccc(N3CCc4c(cc(Cn5ccnc5)cc4-c4cn(C)nc4C(F)(F)F)C3=O)c2c1
body weight (BALB/c nude mice, MV4-11 xenograft; intraperitoneal, 75 mg/kg, day 24): 21.7 g and 25.7 g and 23 g and 23.5 g and 20.9 g and 22.6 g and 22.2 g and 23.2 g

CC(C)[C@H](NC(=O)[C@@H](NC(=O)[C@H](CCCNC(=N)N)NC(=O)[C@H](CCCNC(=N)N)NC(=O)[C@H](CCCNC(=N)N)NC(=O)[C@H](CCC(N)=O)NC(=O)[C@H](CCCNC(=N)N)NC(=O)[C@H](CCCNC(=N)N)NC(=O)[C@H](CCCCN)NC(=O)[C@H](CCCCN)NC(=O)[C@H](CCCNC(=N)N)NC(=O)CN)[C@@H](C)O)C(=O)N[C@H](C(=O)N[C@@H](CO)C(=O)N1CCC[C@H]1C(=O)O)[C@@H](C)O
organ weight (ICR mice, male, heart; intranasal, 20 mg/kg daily, 4 weeks): 0.22 ± 0.031 g

N#[11C]c1ccc(-c2csc(NN=C3CCCC3)n2)cc1
radioactivity uptake (C57BL/6 mice, male, spleen; intravenous, 3 MBq, 1 min): 2.93 ± 0.66 %ID/g

CC[C@H](C)[C@H](NC(=O)[C@H](CC(C)C)NC(=O)CNC(=O)[C@H](Cc1c[nH]cn1)NC(=O)[C@@H](NC(=O)[C@H](Cc1c[nH]c2ccccc12)NC(=O)[C@H](CCCCN)NC(=O)CNC(=O)[C@@H](NC(=O)[C@H](Cc1c[nH]cn1)NC(=O)[C@H](Cc1c[nH]cn1)NC(=O)[C@@H](NC(=O)CNC(=O)[C@H](Cc1c[nH]cn1)NC(=O)[C@H](Cc1ccccc1)NC(=O)[C@H](CC(C)C)NC(=O)[C@H](CC(C)C)NC(=O)CNC(=O)[C@H](CC(C)C)NC(=O)[C@@H](N)Cc1ccccc1)C(C)C)C(C)C)[C@@H](C)CC)C(=O)N[C@@H](Cc1c[nH]cn1)C(=O)NCC(=O)N[C@@H](Cc1c[nH]cn1)C(=O)N[C@@H](Cc1c[nH]cn1)C(N)=O
chronic toxic concentration (zebrafish embryos 28 hpf, E3 medium; 24 h): 5 µM

Some of these lines once more:
N#[11C]c1ccc(-c2csc(NN=C3CCCC3)n2)cc1
radioactivity uptake (C57BL/6 mice, male, spleen; intravenous, 3 MBq, 1 min): 2.93 ± 0.66 %ID/g

O=C1NC2(CC2)COc2ncc(F)cc2[C@H]2COCCN2c2ccn3ncc1c3n2
body weight (Sprague-Dawley rat, male; oral, 10 mg/kg/day, end of treatment, 4-week repeated-dose toxicity): 451 ± 30.5 g
